Values quoted from earlier work that unrelated publications cite.
Protocols differ between the studies behind these lines. Values joined by “and” are separate records of one study, mostly repeats; a detail may differ. ± gives the spread as reported. In brackets after ≈: the same amount, converted by molar mass.

COC(=O)[C@H]1[C@@H](c2ccc(C)cc2)C[C@@H]2CC[C@H]1N2C/C=C/C[18F]
tissue uptake (PET; rat, striatum; dose not given, 24 min): 1.94 %ID/g and 2.48 %ID/g and 1.92 %ID/g and 2.92 %ID/g and 2.3 %ID/g

c1ccc2c(c1)cc1ccc3cccc4c5ccccc5c2c1c34
amount in tissue (zebrafish embryos, whole embryo; 350.8 ng/well, 48 hpf, single exposure): 0.247 ng/well and 0.383 ng/well and 0.299 ng/well

N.N.[Cl][Pt][Cl]
AUC (item: total platinum; mouse, plasma; intravenous, 2.6 mg Pt/kg): 29200 ng·h/mL

CN(C)CCC=C1c2ccccc2C=Cc2ccccc21
fraction unbound (mouse): 0.0034

Clc1cc2c(cc1Cl)Oc1cc(Cl)c(Cl)cc1O2
lowest dose with hepatic fibrosis (female C57BL/6 mouse; every 28 days for 4 days): 0.03 mg/kg

CCN(CCO)CCCC(C)Nc1ccnc2cc(Cl)ccc12 (centres unmarked)
blood-to-plasma ratio (human): 7.2

Oc1ccc(C(c2ccc(O)cc2)(C(F)(F)F)C(F)(F)F)cc1
log Kow: 4.47

O=C(O)c1cc(-c2ccc([C@H]3C[C@H]4C[C@@H]3CN4)cc2)c2ccc(-c3ccc(C(F)(F)F)cc3)cc2c1
solubility (pH 4): 1.22 ± 0.05 µg/mL (≈ 2.5 µM)

NC1CCCCC1N.O=C([O-])C(=O)[O-].[Pt+2] (centres unmarked)
MTD (mouse; intravenous): 4 mg/kg

COC(=O)[C@@H]1C[C@H](OC(C)=O)C(=O)[C@H]2[C@@]1(C)CC[C@H]1C(=O)O[C@H](c3ccoc3)C[C@]21C
Ki (kappa opioid receptor Y312A): 88.6 nM and 79 nM

O=C(O)C(F)(F)C(F)(F)C(F)(F)C(F)(F)C(F)(F)C(F)(F)C(F)(F)F
pKa (surface tension; literature value): 2.2

c1cc2c3c(cccc3c1)CC2
amount in tissue (zebrafish embryos, whole embryo; 83.12 ng/well, 48 hpf, single exposure): 0.456 ng/well and 0.482 ng/well and 0.5 ng/well

CC[C@H](C)C[C@H](C)CCCCCCCCC(=O)N[C@H]1C[C@@H](O)[C@@H](NCCN)NC(=O)[C@@H]2[C@@H](O)CCN2C(=O)[C@H]([C@H](O)CCN)NC(=O)[C@H]([C@H](O)[C@@H](O)c2ccc(O)cc2)NC(=O)[C@@H]2C[C@@H](O)CN2C(=O)[C@H]([C@@H](C)O)NC1=O
fraction excreted in faeces (human; together with: radiolabelled compound): 35%

O=S(=O)(O)C(F)(F)C(F)(F)C(F)(F)C(F)(F)F
pKa (literature value; vapour phase): < 0.3

CCOP(=S)(OCC)Oc1cc(C)nc(C(C)C)n1
log Kow: 3.81

O=S(=O)([O-])C(F)(F)C(F)(F)C(F)(F)C(F)(F)C(F)(F)C(F)(F)C(F)(F)C(F)(F)F.[Li+]
IC50 (CYP2D6; inhibitor; Tox21 screening): inactive

O=C(O)C(F)(F)C(F)(F)C(F)(F)C(F)(F)C(F)(F)C(F)(F)C(F)(F)F
plasma fraction unbound (plasma): 0.001

COC(=O)[C@@H](N)Cc1ccc(OP2(=O)CO[C@@H](Cn3cnc4c(N)ncnc43)CO2)cc1 (some centres unmarked)
half-life (PBS; pH 6.5, Sp isomer): 0.917 h

FC(F)(F)C(F)(F)C(F)(F)C(F)(F)C(F)(F)C(F)(F)CCI
IC50 (CYP3A4; inhibitor; Tox21 screening): inactive

N.N.O=C([O-])C1(C(=O)[O-])CCC1.[Pt+2]
Cmax (plasma; concentration not given, total, literature data): 10.4 µM

CN(C)CCCC1(c2ccc(F)cc2)OCc2cc(C#N)ccc21 (centres unmarked)
fraction unbound (dog): 0.057

Nc1ccccc1
HSA binding, literature value (human serum albumin; concentration not given): 14.1%

C[C@@H](O[C@H]1OCCN(Cc2n[nH]c(=O)[nH]2)[C@H]1c1ccc(F)cc1)c1cc(C(F)(F)F)cc(C(F)(F)F)c1
fraction unbound (dog): 0.001

CCCCCOc1ccc(-c2ccc(-c3ccc(C(=O)N[C@H]4C[C@@H](O)[C@@H](O)NC(=O)[C@@H]5[C@@H](O)[C@@H](C)CN5C(=O)[C@H]([C@@H](C)O)NC(=O)[C@H]([C@H](O)[C@@H](O)c5ccc(O)cc5)NC(=O)[C@@H]5C[C@@H](O)CN5C(=O)[C@H]([C@@H](C)O)NC4=O)cc3)cc2)cc1
volume of distribution (healthy volunteers; 200 mg day 4 then 100 mg days 5-13): 35.2 ± 14.4 L

N#C[C@@]1(c2ccc3c(N)ncnn23)O[C@H](CO)[C@@H](O)[C@H]1O
lung concentration (rhesus macaque; intravenous, 10 mg/kg remdesivir): 2670 nmol/kg

CC(=O)C[C@@H](c1ccccc1)c1c(O)c2ccccc2oc1=O
Cmax, mean (human, CYP2C9 *1/*1, fasted; 5 mg, together with: warfarin 10 mg single dose): 549 ng/mL

CC(C)C[C@H]1C(=O)N2CCC[C@H]2[C@]2(O)O[C@](NC(=O)[C@@H]3C=C4c5cccc6[nH]c(Br)c(c56)C[C@H]4N(C)C3)(C(C)C)C(=O)N12
fraction unbound (dog): 0.002

c1cc2ccc3cccc4ccc(c1)c2c34
log Kow (experimental mean or OPERA estimate): 4.88

O=C(O)C(F)(F)C(F)(F)C(F)(F)C(F)(F)C(F)(F)C(F)(F)C(F)(F)C(F)(F)C(F)(F)C(F)(F)F
plasma fraction unbound (plasma): 0.0116

CN(C)CCCN1c2ccccc2CCc2ccc(Cl)cc21
fraction unbound (human): 0.004

C=C[C@@H]1C[C@]1(NC(=O)[C@@H]1C[C@@H]2CN1C(=O)[C@H](C(C)(C)C)NC(=O)O[C@@H]1C[C@H]1CCCCCc1nc3ccc(OC)cc3nc1O2)C(=O)NS(=O)(=O)C1CC1
biliary recovery (bile duct-cannulated rat; oral, time not given): 28%

CN1CCN(C2=Nc3ccccc3Oc3ccc(Cl)cc32)CC1
Cmax (human, plasma; concentration not given, range of reported values): 0.02 to 0.411 µM

O=C(O)C(F)(F)C(F)(F)C(F)(F)C(F)(F)C(F)(F)C(F)(F)F
plasma fraction unbound (plasma): 0.0004

CC(C)CNC(=O)[C@@H](N)Cc1ccc(OP2(=O)CO[C@@H](Cn3cnc4c(N)ncnc43)CO2)cc1 (some centres unmarked)
half-life (PBS; pH 6.5, Rp isomer): 12.8 h

CNCCCN1c2ccccc2CCc2ccccc21
fraction unbound (dog): 0.017

ClC1=C(Cl)[C@]2(Cl)[C@@H]3[C@@H]4C[C@@H]([C@H]5O[C@@H]45)[C@@H]3[C@@]1(Cl)C2(Cl)Cl
water solubility (25 °C): 0.11 µg/mL (≈ 0.289 µM)

C1=Cc2cccc3cccc1c23
Km (substrate; human liver microsomes): 1.35 µM

O=C(O)C1OC(Oc2ccc(S(=O)(=O)c3ccc(O)cc3)cc2)C(O)C(O)C1O (centres unmarked)
elimination half-life (item: BPS glucuronide; human volunteers, plasma; oral, 0.1 mg/kg deuterated BPS): 9.3 h

CN[C@H](CC(C)C)C(=O)N[C@H]1C(=O)N[C@@H](CC(N)=O)C(=O)N[C@H]2C(=O)N[C@H]3C(=O)N[C@H](C(=O)N[C@H](C(=O)O)c4cc(O)cc(O)c4-c4cc3ccc4O)[C@H](O)c3ccc(c(Cl)c3)Oc3cc2cc(c3O[C@@H]2O[C@H](CO)[C@@H](O)[C@H](O)[C@H]2O[C@H]2C[C@](C)(N)[C@H](O)[C@H](C)O2)Oc2ccc(cc2Cl)[C@H]1O
fecal concentration (human; dose not given): 175 to 6300 µg/mL

CN1[C@@H]2CC[C@H]1C[C@@H](OC(=O)c1c[nH]c3ccccc13)C2
fraction unbound (mouse): 0.059

c1ccc2c(c1)cc1ccc3cccc4ccc2c1c34
amount in tissue (zebrafish embryos, whole embryo; 292.7 ng/well, 48 hpf, single exposure): 0.43 ng/well and 0.282 ng/well and 0.424 ng/well and 0.261 ng/well

O=C/C=C/c1ccccc1
plasma concentration (human plasma; concentration not given): not detected

Cc1c(C(=O)NN2CCCCC2)nn(-c2ccc(Cl)cc2Cl)c1-c1ccc(Cl)cc1
fraction unbound (mouse): 0.0004

c1ccc2c(c1)-c1cccc3c1c-2cc1ccccc13
amount in tissue (zebrafish embryos, whole embryo; 630.75 ng/well, 48 hpf, single exposure): 0.6 ng/well and 0.519 ng/well and 0.365 ng/well

Some of these lines once more:
O=C(O)C(F)(F)C(F)(F)C(F)(F)C(F)(F)C(F)(F)C(F)(F)C(F)(F)C(F)(F)C(F)(F)C(F)(F)F
plasma fraction unbound (plasma): 0.0116

CC(C)CNC(=O)[C@@H](N)Cc1ccc(OP2(=O)CO[C@@H](Cn3cnc4c(N)ncnc43)CO2)cc1 (some centres unmarked)
half-life (PBS; pH 6.5, Rp isomer): 12.8 h

CC[C@H](C)C[C@H](C)CCCCCCCCC(=O)N[C@H]1C[C@@H](O)[C@@H](NCCN)NC(=O)[C@@H]2[C@@H](O)CCN2C(=O)[C@H]([C@H](O)CCN)NC(=O)[C@H]([C@H](O)[C@@H](O)c2ccc(O)cc2)NC(=O)[C@@H]2C[C@@H](O)CN2C(=O)[C@H]([C@@H](C)O)NC1=O
fraction excreted in faeces (human; together with: radiolabelled compound): 35%

Oc1ccc(C(c2ccc(O)cc2)(C(F)(F)F)C(F)(F)F)cc1
log Kow: 4.47

Clc1cc2c(cc1Cl)Oc1cc(Cl)c(Cl)cc1O2
lowest dose with hepatic fibrosis (female C57BL/6 mouse; every 28 days for 4 days): 0.03 mg/kg

CN1[C@@H]2CC[C@H]1C[C@@H](OC(=O)c1c[nH]c3ccccc13)C2
fraction unbound (mouse): 0.059
